Experimental data pooled from the literature.
Protocols differ between the studies behind these lines. Numbers after ± are the reported error.
Organism: Mycobacterium tuberculosis

O=C(C[N+]1=C(c2ccc(F)c(F)c2)c2cccn2CC1)c1ccc(F)cc1
kanamycin MIC (K204; together with: kanamycin): ≥ 10 µg/mL

CO[C@H]1[C@H](O[C@H]([C@H]2O[C@@H](n3ccc(=O)[nH]c3=O)[C@H](O)[C@@H]2O)[C@H](NCCCNC(=O)[C@@H](NC(=O)[C@@H](NC(=O)N[C@H](C(=O)O)C(C)C)[C@@H]2CCNC(=N)N2)[C@@H](OC(=O)CCCCCCCCCCCCNC(=N)N)C(C)C)C(N)=O)O[C@H](CN)[C@H]1O
MIC90 (alamar blue; H37Rv): 0.08 ± 0.0021 µg/mL

N#Cc1ccccc1Oc1ccc(Cn2cc(C3CCCC3)nn2)cc1O
MIC (Alamar Blue; 6 days plus 24 h, 37 °C): 0.625 µg/mL

Cc1ccc(C(=O)C[N+]2=C(c3ccc(F)c(F)c3)c3cccn3CC2)cc1
kanamycin MIC (K204; together with: kanamycin): ≥ 10 µg/mL

O=c1c2ccccc2[nH]c(=S)n1Cc1cccnc1
MIC90 (PptT conditional knock-down): 3.1 µM

O=C(C[N+]1=C(c2ccc(F)c(F)c2)c2cccn2CC1)c1ccccc1
kanamycin MIC (K204; together with: kanamycin): ≥ 10 µg/mL

CC(=O)Oc1ccc2nc3ccc(=O)cc-3oc2c1
MIC90 (mc2 6206 bedaquiline-resistant MmpL5 regulator mutant; 7 days): > 256 µM

N#Cc1ccccc1Oc1ccc(Cn2cc(C3CCCCC3)nn2)cc1O
MIC (Alamar Blue; 6 days plus 24 h, 37 °C): 0.625 µg/mL

CC(O)c1cc2[nH]c(=S)n(Cc3cccnc3)c(=O)c2cc1Cl (single isomer, unassigned)
MIC90 (PptT conditional knock-down): 1.66 µM

Nc1nc(N)c2c(Cl)c(CNc3ccc(C(=O)O)cc3)ccc2n1
MIC90 (bacterial growth; DHFR-overexpressing): 1 µM

Some of these lines once more:
O=C(C[N+]1=C(c2ccc(F)c(F)c2)c2cccn2CC1)c1ccc(F)cc1
kanamycin MIC (K204; together with: kanamycin): ≥ 10 µg/mL
